{"data": "Measured values pooled from the literature", "note": "A part holds a random share of what one study measured."}
{"data": "Block 1", "target": "Interferon regulatory factor 5, full length, phosphomimetic (IRF5, Homo sapiens, UniProt Q13568-2, residues 1-514, S451D/S453D/S456D/S462D)", "technique": "protein-binding microarray", "molecule type": "double-stranded DNA, one strand shown", "medium": "in vitro", "concentration": "940 nM top", "notes": "60-bp whole probe", "together with": "salmon DNA 0.4 mg/ml", "baseline": "random background probes", "reading": "higher = stronger binding", "all sequences stand within": "GCCTAGCAC … GTCTTGATTCGCTTGACGCTGCTG"}
{"Sequence": "TGTGCTTTCCTGATGGTTCTGTGCTAG", "fitted relative affinity": "-0.111 z-score"}
{"Sequence": "TTGCTTTCCTTTATGTACTCGTGCTAG", "fitted relative affinity": "1.62 z-score"}
{"Sequence": "TCATTTCCCTATTATATAACTGTGCTA", "fitted relative affinity": "1.87 z-score"}
{"Sequence": "TTAGAACTGGGGTTTCCATTAGTGCTA", "fitted relative affinity": "0.301 z-score"}
{"Sequence": "TCCTCTTTCACTGGTCCTCATGTGCTA", "fitted relative affinity": "2.22 z-score"}
{"Sequence": "CTAGGTATCGGGTATCGGTTAGTGCTA", "fitted relative affinity": "6.5 z-score"}
{"Sequence": "TTAGAACGGAGACTGGATTAGTGCTAG", "fitted relative affinity": "-0.0292 z-score"}
{"Sequence": "TTAGGTTTCGACATTGGGTTAGTGCTA", "fitted relative affinity": "8.13 z-score"}
{"Sequence": "GACGGAATGGGACTGGGGACGTGCTAG", "fitted relative affinity": "-0.344 z-score"}
{"Sequence": "GACGGACTGCTTCTCCGGACGTGCTAG", "fitted relative affinity": "-0.154 z-score"}
{"Sequence": "GACGGACTGGGGTTTCCGGACGTGCTA", "fitted relative affinity": "0.13 z-score"}
{"Sequence": "AATGACTCTATGAAGTAGTTGTGCTAG", "fitted relative affinity": "-0.513 z-score"}
{"Sequence": "GTTACTTTCTACTTCTCTTTGTGCTAG", "fitted relative affinity": "3.96 z-score"}
{"Sequence": "TTAGGTATCAGACTGGATTAGTGCTAG", "fitted relative affinity": "0.756 z-score"}
{"Sequence": "TCAATGATCCAGTTTTACACTGTGCTA", "fitted relative affinity": "-0.0109 z-score"}
{"Sequence": "TTAGATTTAAGTCTCGATTAGTGCTAG", "fitted relative affinity": "3.06 z-score"}
{"Sequence": "ATAGGTATCGGTATCGGTTAGTGCTAG", "fitted relative affinity": "10.1 z-score"}
{"Sequence": "TTAGCTATCGGGTATCGATTAGTGCTA", "fitted relative affinity": "2.41 z-score"}
{"Sequence": "TCATGTTTATGTCTGGGACTGTGCTAG", "fitted relative affinity": "-0.103 z-score"}
{"Sequence": "GACGAACTCGGGTTTCGAGACGTGCTA", "fitted relative affinity": "1.7 z-score"}
{"Sequence": "GACGGTCTCCTTCTCCTAACGTGCTAG", "fitted relative affinity": "0.663 z-score"}
{"Sequence": "GCCGATTTCAGACTGGAGACGTGCTAG", "fitted relative affinity": "-0.2 z-score"}
{"Sequence": "TTAGGTTTCGGTTCCGGCTAGTGCTAG", "fitted relative affinity": "14.9 z-score"}
{"Sequence": "GACGGTCTCCTTCTCCTCACGTGCTAG", "fitted relative affinity": "0.408 z-score"}
{"data": "Block 2", "target": "Prothrombin, mature alpha-thrombin (F2, Homo sapiens, UniProt P00734)", "technique": "aptamer microarray, sandwich", "molecule type": "DNA with 2'F-ANA", "medium": "in vitro", "concentration": "200 nM", "notes": "whole 15-mer aptamer, many near background", "together with": "Cy3 exosite-II aptamer, 400 nM", "reading": "higher = stronger binding", "sequence": "GGTTGGTGTGGTTGG"}
{"Modification": "2'F-ANA at 1 2 3 4 5 6 8 11 13 14 15", "mean fluorescence intensity": "53.2 a.u."}
{"Modification": "2'F-ANA at 1 2 3 8 12 13", "mean fluorescence intensity": "441 a.u."}
{"Modification": "2'F-ANA at 1 4 6 8 10 11 12 15", "mean fluorescence intensity": "64.6 a.u."}
{"Modification": "2'F-ANA at 7 9 10 11", "mean fluorescence intensity": "189 a.u."}
{"Modification": "2'F-ANA at 2 5 6 10 12 13 14 15", "mean fluorescence intensity": "49.4 a.u."}
{"Modification": "2'F-ANA at 1 2 3 5 6 7 8 9 10 12 13 15", "mean fluorescence intensity": "55.2 a.u."}
{"Modification": "2'F-ANA at 2 3 4 11 12", "mean fluorescence intensity": "764 a.u."}
{"Modification": "2'F-ANA at 2 3 6 7 10 11 12 15", "mean fluorescence intensity": "372 a.u."}
{"Modification": "2'F-ANA at 1 3 4 6 7 8 12 13 15", "mean fluorescence intensity": "323 a.u."}
{"Modification": "2'F-ANA at 1 4 5 7 8 9 10 11 13 14 15", "mean fluorescence intensity": "47.2 a.u."}
{"Modification": "2'F-ANA at 3 5 6 8 9 12 13 14", "mean fluorescence intensity": "59 a.u."}
{"Modification": "2'F-ANA at 1 2 5 6 7 10 11 13", "mean fluorescence intensity": "48 a.u."}
{"Modification": "2'F-ANA at 3 5 7 13", "mean fluorescence intensity": "143 a.u."}
{"Modification": "2'F-ANA at 1 2 4 8 10 11 13", "mean fluorescence intensity": "62.2 a.u."}
{"Modification": "2'F-ANA at 1 2 3 6 7 13", "mean fluorescence intensity": "149 a.u."}
{"Modification": "2'F-ANA at 2 3 6 7 8 9 11 14 15", "mean fluorescence intensity": "304 a.u."}
{"Modification": "2'F-ANA at 1 5 7 8 10 11 13 15", "mean fluorescence intensity": "50.7 a.u."}
{"Modification": "2'F-ANA at 4 7 8 11 12 13 14", "mean fluorescence intensity": "221 a.u."}
{"Modification": "2'F-ANA at 1 2 3 5 9 10 11 15", "mean fluorescence intensity": "45.5 a.u."}
{"Modification": "2'F-ANA at 6 7 9 10 12 14 15", "mean fluorescence intensity": "106 a.u."}
{"Modification": "2'F-ANA at 2 3 5 6 7 13 15", "mean fluorescence intensity": "80.9 a.u."}
{"Modification": "2'F-ANA at 1 4 5 6 7 9 10 12 15", "mean fluorescence intensity": "54.8 a.u."}
{"Modification": "2'F-ANA at 3 5 6 8 10 11", "mean fluorescence intensity": "56.5 a.u."}
{"data": "Block 3", "target": "Fragile X messenger ribonucleoprotein 1, C-terminal low-complexity region (Fmr1, Mus musculus, UniProt P35922)", "technique": "RNA Bind-n-Seq", "molecule type": "RNA", "medium": "in vitro", "concentration": "200 nM", "notes": "whole 134-nt RNA, ends assumed", "together with": "150 mM LiCl", "baseline": "input library", "reading": "higher = stronger binding", "all molecules": "7-deaza-guanosine replaces G", "all sequences stand within": "GGGAGUUCUACAGUCCGACGAUC … UGGAAUUCUCGGGUGUCAAGG"}
{"Sequence": "GUCCUGUGCUACACAUCGUAUGUACCGAAUCGGGGAAAAAGGAAAAAGGGGAAAAAGGAAAGUAUUAUGUUACGCCGUUCGGAUCUGCAC", "log2 enrichment": 0.117}
{"Sequence": "GUCCUGUGCUACACAUCGUAUGUACCGAAUCGGGGUUUUUGGGGAAAGGGGUUUGGGGAAAGUAUUAUGUUACGCCGUUCGGAUCUGCAC", "log2 enrichment": -1.08}
{"Sequence": "AGUCCUGUGCUACACAUCGUAUGUACCGAAUCGGGGUGGGGAAAAAGGGGAAAGGGGAAAGUAUUAUGUUACGCCGUUCGGAUCUGCACU", "log2 enrichment": 0.00415}
{"Sequence": "GUCCUGUGCUACACAUCGUAUGUACCGAAUCGGGGAGGGGAAAAAGGGGAAAAAGGGGAAAGUAUUAUGUUACGCCGUUCGGAUCUGCAC", "log2 enrichment": 1.24}
{"Sequence": "UCAAGUCCUGUGCUACACAUCGUAUGUACCGAAUCGGGAAAAAGGGAGGGUGGGAAAGUAUUAUGUUACGCCGUUCGGAUCUGCACUUCC", "log2 enrichment": -1.16}
{"Sequence": "GUCCUGUGCUACACAUCGUAUGUACCGAAUCGGGAAAAAAAGGGUUUUUUUGGGUGGGAAAGUAUUAUGUUACGCCGUUCGGAUCUGCAC", "log2 enrichment": -2.21}
{"Sequence": "UCCUGUGCUACACAUCGUAUGUACCGAAUCGGGAAAGGGAAAAAAAGGGAAAAAAAGGGAAAGUAUUAUGUUACGCCGUUCGGAUCUGCA", "log2 enrichment": 0.653}
{"Sequence": "GUCCUGUGCUACACAUCGUAUGUACCGAAUCGGGGAGGGGAAAAAAAGGGGUUUGGGGAAAGUAUUAUGUUACGCCGUUCGGAUCUGCAC", "log2 enrichment": -0.483}
{"Sequence": "CACAGACAACACGCGCCCACACAGACACAGAGGGAAGGGGUUGGGAUGGGGACAGGGUGCACAGCAGGGCGGGGUAGGACCCCAGCCCCU", "log2 enrichment": 0.717}
{"Sequence": "UAACUUUAGAGGAGGAUCUGAUGAAUAUGGCAGUGGACGUGGAUUUGGGGAUGGCUAUAAUGGGUAUGGAGGAGGACCUGGAGGUGGCAA", "log2 enrichment": -0.0263}
{"Sequence": "UCCUGUGCUACACAUCGUAUGUACCGAAUCGGGAAAGGGAAAAAAAGGGUUUUUUUGGGAAAGUAUUAUGUUACGCCGUUCGGAUCUGCA", "log2 enrichment": -1.28}
{"data": "Block 4", "target": "Histone acetyltransferase KAT6A, both winged helices, GST fusion (KAT6A, Homo sapiens, UniProt Q92794, residues 1-181)", "technique": "protein binding microarray", "molecule type": "double-stranded DNA, one strand shown", "medium": "in vitro", "concentration": "not given", "notes": "8-mer, flanks averaged, mean of 2 arrays, mostly near background", "baseline": "not given", "reading": "higher = stronger binding", "Target sequence (chain)": "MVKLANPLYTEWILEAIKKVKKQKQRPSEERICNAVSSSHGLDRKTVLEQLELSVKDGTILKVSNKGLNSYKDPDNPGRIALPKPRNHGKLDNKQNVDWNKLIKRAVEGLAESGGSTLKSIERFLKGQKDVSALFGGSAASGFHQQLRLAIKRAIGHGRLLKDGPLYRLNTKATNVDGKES"}
{"Sequence": "ACAGGGAG", "E-score": -0.0814}
{"Sequence": "AAGCCGCA", "E-score": 0.217}
{"Sequence": "AAGCGCAA", "E-score": 0.207}
{"Sequence": "CCTCACCA", "E-score": -0.187}
{"Sequence": "GCCCTTCC", "E-score": -0.00874}
{"Sequence": "TCCCCAAA", "E-score": -0.252}
{"Sequence": "ACTCATTC", "E-score": -0.0173}
{"Sequence": "GATCCTGA", "E-score": -0.0424}
{"Sequence": "ATAGTACC", "E-score": 0.00249}
{"Sequence": "ACTATCCT", "E-score": -0.216}
{"Sequence": "CAATGACC", "E-score": -0.0821}
{"Sequence": "TAGATGCA", "E-score": -0.0907}
{"Sequence": "CACAGTCA", "E-score": -0.177}
{"Sequence": "AACAGCAC", "E-score": 0.0689}
{"Sequence": "CGGGAACA", "E-score": 0.242}
{"Sequence": "CCACTGAC", "E-score": -0.0613}
{"Sequence": "GGATAAAC", "E-score": 0.0357}
{"Sequence": "ACCAAACA", "E-score": 0.0563}
{"Sequence": "GCGGGTAC", "E-score": 0.187}
{"Sequence": "GCGTCCGA", "E-score": 0.23}
{"Sequence": "GAGCCCCC", "E-score": -0.185}
{"Sequence": "CGCGGTTA", "E-score": 0.297}
{"Sequence": "CCCCTCGG", "E-score": 0.0517}
{"Sequence": "CGATTTCC", "E-score": -0.0136}
{"Sequence": "CGCTACCG", "E-score": 0.311}
